# Values quoted from earlier work that unrelated publications cite.
# ± gives the spread as reported.
# BRD4 BD1: Bromodomain-containing protein 4, BD1 (BRD4, Homo sapiens, UniProt O60885)
# MEP1A: Meprin A subunit alpha (MEP1A, Homo sapiens, UniProt Q16819)
# UniProt Q16819, sequence (whole entry, looked up): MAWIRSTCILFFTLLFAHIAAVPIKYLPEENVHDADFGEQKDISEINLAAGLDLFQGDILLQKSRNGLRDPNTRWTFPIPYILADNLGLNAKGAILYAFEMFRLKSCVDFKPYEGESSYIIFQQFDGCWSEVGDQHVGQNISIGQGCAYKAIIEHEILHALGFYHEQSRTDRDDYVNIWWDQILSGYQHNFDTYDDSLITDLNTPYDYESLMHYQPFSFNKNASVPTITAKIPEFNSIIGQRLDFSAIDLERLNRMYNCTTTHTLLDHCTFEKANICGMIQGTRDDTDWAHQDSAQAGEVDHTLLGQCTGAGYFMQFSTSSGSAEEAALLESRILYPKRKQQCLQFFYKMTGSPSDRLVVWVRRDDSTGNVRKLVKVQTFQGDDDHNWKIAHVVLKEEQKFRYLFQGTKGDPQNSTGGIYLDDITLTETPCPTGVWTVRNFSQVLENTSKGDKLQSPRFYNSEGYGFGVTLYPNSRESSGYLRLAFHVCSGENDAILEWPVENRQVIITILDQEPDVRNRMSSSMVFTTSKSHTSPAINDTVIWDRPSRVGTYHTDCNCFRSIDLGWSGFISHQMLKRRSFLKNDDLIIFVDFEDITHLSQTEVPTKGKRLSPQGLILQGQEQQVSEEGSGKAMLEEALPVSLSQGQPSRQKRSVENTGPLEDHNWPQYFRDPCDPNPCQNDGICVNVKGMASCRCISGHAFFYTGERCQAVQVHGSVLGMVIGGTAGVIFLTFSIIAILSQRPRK
# UniProt P27338, sequence (whole entry, looked up): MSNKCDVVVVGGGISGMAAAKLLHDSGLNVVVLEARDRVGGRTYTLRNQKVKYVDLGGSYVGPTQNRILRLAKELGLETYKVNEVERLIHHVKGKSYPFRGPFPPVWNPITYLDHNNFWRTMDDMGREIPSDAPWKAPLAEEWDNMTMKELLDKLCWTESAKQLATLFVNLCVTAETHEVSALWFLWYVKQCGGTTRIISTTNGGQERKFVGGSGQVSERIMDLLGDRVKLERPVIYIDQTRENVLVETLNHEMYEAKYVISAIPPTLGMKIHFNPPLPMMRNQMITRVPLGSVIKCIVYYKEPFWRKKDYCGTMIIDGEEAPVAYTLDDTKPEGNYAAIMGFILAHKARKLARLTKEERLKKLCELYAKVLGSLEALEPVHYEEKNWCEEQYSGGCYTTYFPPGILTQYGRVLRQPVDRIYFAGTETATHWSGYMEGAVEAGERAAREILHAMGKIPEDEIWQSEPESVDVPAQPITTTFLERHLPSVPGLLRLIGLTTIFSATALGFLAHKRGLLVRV
# UniProt O43318, sequence (whole entry, looked up): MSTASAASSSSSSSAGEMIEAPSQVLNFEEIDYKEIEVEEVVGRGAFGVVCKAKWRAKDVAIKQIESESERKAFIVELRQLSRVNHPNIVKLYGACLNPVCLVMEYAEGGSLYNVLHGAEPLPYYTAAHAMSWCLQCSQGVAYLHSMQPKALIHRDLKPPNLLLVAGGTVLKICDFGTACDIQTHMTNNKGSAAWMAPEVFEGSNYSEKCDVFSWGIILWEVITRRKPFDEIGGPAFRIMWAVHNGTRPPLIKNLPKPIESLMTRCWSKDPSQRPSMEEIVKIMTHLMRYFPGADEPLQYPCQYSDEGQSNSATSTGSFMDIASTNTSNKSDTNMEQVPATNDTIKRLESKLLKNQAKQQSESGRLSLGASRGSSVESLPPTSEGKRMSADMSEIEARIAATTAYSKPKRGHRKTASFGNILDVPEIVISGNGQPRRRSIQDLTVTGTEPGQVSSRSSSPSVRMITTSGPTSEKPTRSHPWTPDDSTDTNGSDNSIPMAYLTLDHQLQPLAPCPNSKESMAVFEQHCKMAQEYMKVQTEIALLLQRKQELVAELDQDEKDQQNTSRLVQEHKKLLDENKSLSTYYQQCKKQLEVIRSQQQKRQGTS
# UniProt Q9UH17, sequence (whole entry, looked up): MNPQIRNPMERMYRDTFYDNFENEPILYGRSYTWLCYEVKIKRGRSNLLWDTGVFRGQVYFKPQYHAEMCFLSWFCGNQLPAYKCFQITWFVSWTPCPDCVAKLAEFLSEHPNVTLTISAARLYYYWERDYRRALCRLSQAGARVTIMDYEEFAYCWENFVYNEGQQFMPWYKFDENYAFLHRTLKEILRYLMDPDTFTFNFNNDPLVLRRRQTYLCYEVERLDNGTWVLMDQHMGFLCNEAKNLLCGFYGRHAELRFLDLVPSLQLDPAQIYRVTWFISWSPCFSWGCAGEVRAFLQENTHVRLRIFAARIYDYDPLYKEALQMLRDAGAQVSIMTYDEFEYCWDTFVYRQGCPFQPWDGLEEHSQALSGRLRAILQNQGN
# UniProt Q02127, sequence (whole entry, looked up): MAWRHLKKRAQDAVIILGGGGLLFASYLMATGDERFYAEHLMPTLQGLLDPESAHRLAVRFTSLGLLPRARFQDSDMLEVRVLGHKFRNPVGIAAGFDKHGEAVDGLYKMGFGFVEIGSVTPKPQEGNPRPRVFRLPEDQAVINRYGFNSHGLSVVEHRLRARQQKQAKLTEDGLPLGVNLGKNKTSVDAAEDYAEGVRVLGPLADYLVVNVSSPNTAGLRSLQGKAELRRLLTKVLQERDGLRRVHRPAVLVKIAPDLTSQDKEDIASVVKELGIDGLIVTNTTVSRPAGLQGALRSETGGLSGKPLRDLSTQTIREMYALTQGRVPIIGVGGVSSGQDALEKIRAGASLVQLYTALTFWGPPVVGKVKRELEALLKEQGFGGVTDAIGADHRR
# UniProt P18405, sequence (whole entry, looked up): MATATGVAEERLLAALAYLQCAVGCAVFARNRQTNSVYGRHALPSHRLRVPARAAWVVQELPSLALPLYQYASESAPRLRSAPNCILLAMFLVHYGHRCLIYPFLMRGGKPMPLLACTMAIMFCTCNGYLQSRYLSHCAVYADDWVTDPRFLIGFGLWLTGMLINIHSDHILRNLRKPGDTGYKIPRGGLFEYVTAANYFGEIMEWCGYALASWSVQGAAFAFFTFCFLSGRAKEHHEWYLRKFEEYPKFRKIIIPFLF
# UniProt P06493, sequence (whole entry, looked up): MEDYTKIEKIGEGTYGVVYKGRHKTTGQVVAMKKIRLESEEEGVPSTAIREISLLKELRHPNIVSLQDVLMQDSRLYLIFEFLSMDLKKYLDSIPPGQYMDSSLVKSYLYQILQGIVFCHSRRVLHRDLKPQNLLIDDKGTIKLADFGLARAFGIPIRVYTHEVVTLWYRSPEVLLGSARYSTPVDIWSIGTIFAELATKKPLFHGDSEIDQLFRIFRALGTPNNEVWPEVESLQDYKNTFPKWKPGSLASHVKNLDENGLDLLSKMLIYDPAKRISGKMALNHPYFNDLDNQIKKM
Compound,target,test,system,setting,IC50
Cc1cc(S(=O)(=O)NC2CCCC2)cc(-c2csc(=O)[nH]2)c1N,BRD4 BD1,biochemical,,bromodomain 1,0.79 µM
COc1cccc(OC(=O)COC(=O)/C=C/c2ccc(O)cc2)c1,tyrosinase,inhibitor,,,5.7 µM
CCOC(=O)c1[nH]c(C)c(Cc2ccc(C(F)(F)F)nc2)c1C,"DHODH (Homo sapiens, UniProt Q02127)",,,,> 100 µM
Oc1ccc(Cl)cc1/C=N\Nc1nc(-c2ccc(F)cc2)cs1,alpha-amylase,"enzyme activity, inhibitor",,,5.14 ± 0.03 µM
O=C(CCN(Cc1cccc(C(=O)O)c1)Cc1cccc(C(=O)O)c1)NO,MEP1A,"enzyme activity, inhibitor",,,5.03 ± 0.057 µM
C/C=C(\C)CC/C=C(\C)C(=O)OCC(C)(C)CC1=C(O)C(=O)c2ccccc2C1=O,alpha-glucosidase,inhibitor,,,22.6 ± 0.6 µg/mL
Nc1nc(Nc2ccc(S(N)(=O)=O)cc2)nn1C(=O)c1cccs1,"CDK1 (Homo sapiens, UniProt P06493)","enzyme activity, inhibitor",,,0.0021 µM
O=C(N/N=C/c1ccc(O)c(O)c1)c1ccc2ncccc2c1,α-glucosidase,inhibitor,,,6.2 ± 0.3 µM
CCn1c2c(c(=O)[nH]c1=O)C(c1ccccc1)C1=C(CN(CCc3ccc(O)cc3)C1=O)N2 (stereo not drawn),BRD4 BD1,biochemical,,bromodomain 1,0.41 µM
CC(C)c1ccc(CN2CCN(CC(=O)c3ccc4[nH]c(=O)[nH]c4c3)CC2)cc1,"DNA dC->dU-editing enzyme APOBEC-3B, C-terminal domain (Homo sapiens, UniProt Q9UH17)",,,,40 µM
CNc1nc(-c2nn(C)c(C)c2Oc2ccccc2)cn2c(C)nnc12,BRD4 BD1,biochemical,,bromodomain 1,0.001 µM
CC(=O)c1sc(N/N=C2/c3ccccc3-c3nc4cc(F)ccc4nc32)nc1C,alpha-amylase,"enzyme activity, inhibitor",,,17.6 ± 0.74 µM
CC1C(=O)N(C)c2ccc(-c3ccc(Nc4cccc(S(=O)(=O)N(C)C)c4)cc3)nc2N1C1CCN(C)CC1 (stereo not drawn),BRD4 BD1,biochemical,,bromodomain 1,< 0.1 µM
O=C(N/N=C/c1ccc(O)c(O)c1)c1ccc(-c2nnc(-c3ccc4ncccc4c3)o2)cc1,α-glucosidase,inhibitor,,,2.6 ± 0.01 µM
Oc1ccc(-c2csc(N/N=C3/c4ccccc4-c4nc5ccccc5nc43)n2)cc1,alpha-amylase,"enzyme activity, inhibitor",,,0.62 ± 0.04 µM
O=C(CCN(Cc1cccnc1)Cc1cccnc1)NO,MEP1A,"enzyme activity, inhibitor",,,7.68 ± 0.41 µM
NC(=S)N/N=C/c1c[nH]c2ccccc12,tyrosinase,enzyme activity,,,102 µM
O=C(CN(Cc1ccc2c(c1)OCO2)Cc1ccc2c(c1)OCO2)NO,MEP1A,"enzyme activity, inhibitor",,,1.92 ± 0.12 µM
Cc1nc(-c2ccc(F)cc2)sc1C(=O)N[C@H](C(=O)Nc1cccc(C(N)=O)c1)c1ccc(OCc2ccccc2)cc1,"Genome polyprotein, NS2B-NS3 protease (dengue virus type 2, UniProt P29990)","protease activity, inhibitor",,added: substrate 50 µM,12 µM
O=C(/C=C/c1ccc(O)cc1)OCC(=O)Oc1ccc2ccc(=O)oc2c1,tyrosinase,"enzyme activity, inhibitor",,,124 µM
COc1cc(O)c2c(c1)C1OC1CC(O)C(O)C(=O)CCCC(C)OC2=O (stereo not drawn),"MAP3K7 (Homo sapiens, UniProt O43318)","enzyme activity, inhibitor",,,> 30 µM
O=C(/C=C/c1ccc(O)c(O)c1)Nc1cc(C(F)(F)F)cc(C(F)(F)F)c1,"SRD5A1 (Homo sapiens, UniProt P18405)","enzyme activity, inhibitor, HPTLC",HaCaT,,1.44 µM
Cc1cc2c(c(O)c1O)C(=O)c1c(O)cc(O)cc1C2=O,"MAOB (Homo sapiens, UniProt P27338)",,,,4.55 ± 0.09 µM
Cc1cc(N=Nc2ccc3c(c2)CCC(=O)N3)c(N)cc1O,BRD4 BD1,biochemical,,bromodomain 1,0.027 µM

# Repeated from above:
Compound,target,test,system,setting,IC50
O=C(N/N=C/c1ccc(O)c(O)c1)c1ccc(-c2nnc(-c3ccc4ncccc4c3)o2)cc1,α-glucosidase,inhibitor,,,2.6 ± 0.01 µM
